Results pooled from the literature.
Compare with care: the assays were run in different laboratories. Values joined by “and” are separate records of one study, mostly repeats; a detail may differ. Numbers after ± are the reported error.
DRD1: D(1A) dopamine receptor (DRD1, Homo sapiens, UniProt P21728)
Luciferin 4-monooxygenase: Luciferin 4-monooxygenase (Photinus pyralis, UniProt P08659)
Palmitoyl-protein thioesterase 1: Palmitoyl-protein thioesterase 1 (Homo sapiens, UniProt P50897)
Adhesin FmlH lectin domain: Adhesin FmlH, lectin domain (Escherichia coli, UniProt Q1RBS0)
HTR1E: 5-hydroxytryptamine receptor 1E (HTR1E, Homo sapiens, UniProt P28566)

`Cc1ccc(OC[C@H]2CN(CCN3CCc4ccccc43)CCO2)cn1` has an inhibition of 13.3% (DRD1; radioligand binding; concentration not given, together with: [3H]SCH23390).
The inhibition of `COc1cc(C(=O)NS(=O)(=O)c2ccccc2C)ccc1Cc1cn(C)c2ccc(NC(=O)OC3CCCC3)cc12` is reported as 6.42% and 2.37% and -3.09% and -6.6% and -2.51% (LRRC8A/LRRC8C (Homo sapiens, UniProt Q8IWT6+Q8TDW0, Y124F/Y126F); ion current, whole-cell patch clamp; HCT LRRC8-/- cells; 1 µM, +100 mV, Y124F/Y126F heteromers).
`Cc1cc(C)nc(Cn2ncc(N(C)Cc3ccccc3)cc2=O)n1` has an inhibition of 12% (Luciferin 4-monooxygenase; luciferase luminescence, inhibitor; cell-free; 50 µM, counter-screen).
For `Cc1nn(-c2nc3c(F)cc(F)cc3s2)c(O)c1C(c1ccc(C(F)(F)F)cc1)c1c(C)nn(-c2nc3c(F)cc(F)cc3s2)c1O`, the inhibition was 98.3% (Cyclic GMP-AMP synthase, catalytic domain; with DNA (CGAS, Homo sapiens, UniProt Q8N884); cGAS phase separation, inhibitor; 200 µM).
`Nc1ccc(/N=N/c2ccccc2)c(N)n1` gave an inhibition of 60.8% (Palmitoyl-protein thioesterase 1; Spectrum Collection screen; concentration not given, together with: substrate 20 µM).
The inhibition of `COc1ccc(C(=O)N2CCc3onc(-c4cccc(F)c4)c3C2)cc1` is reported as 51.5% (Luciferin 4-monooxygenase; luciferase luminescence, inhibitor; cell-free; 50 µM, counter-screen).
For `Cc1cc(NS(=O)(=O)c2ccc(N=NN(C)O)cc2)no1`, the inhibition was 15 ± 0.29% (α-glucosidase, rat intestine; enzyme activity; 60 µg/mL, together with: 4-nitrophenyl α-D-glucopyranoside).
For `Clc1cncc(OC[C@H]2CN(CCN3CCc4ccccc43)CCO2)c1`, the inhibition was 44.1% (DRD1; radioligand binding; concentration not given, together with: [3H]SCH23390).
The inhibition of `O=S(=O)(O)c1cc(N=C=S)ccc1/C=C/c1ccc(N=C=S)cc1S(=O)(=O)O` is reported as 43.3% (Luciferin 4-monooxygenase; luciferase luminescence, inhibitor; cell-free; 50 µM, counter-screen).
`O=c1c(O[C@@H]2O[C@H](CO)[C@H](O)[C@H](O)[C@H]2O)c(-c2cc(O)c(O)c(O)c2)oc2cc(O)cc(O)c12` has an inhibition of 10.7 ± 7.2% (Adhesin FmlH lectin domain; binding to desialylated mucin, ELISA competition; UPEC UTI89; 100 µM).
`Cn1cncc1[C@@](N)(c1ccc(Cl)cc1)c1ccc2c(c1)c(-c1cccc(Cl)c1)cc(=O)n2C` has an inhibition of 50 to 92% (Protein farnesyltransferase (Homo sapiens, UniProt P49354+P49356); enzyme activity, inhibitor, scintillation proximity; leukaemia patients, leukaemic blasts; 300 mg/m^2, 10 days, range; reference: pretreatment).
With `Nc1ncnc2c1ncn2[C@@H]1O[C@H](COP(=O)(O)CP(=O)(O)OP(=O)(O)O)[C@@H](O)[C@H]1O` the specific binding was 30.5 CCPM and 52 CCPM (P2X purinoceptor 1 (P2RX1, Homo sapiens, UniProt P51575, R292A); saturation binding; HEK293; 13 nM).
`CCCN(O)N=Nc1ccc(S(=O)(=O)Nc2nccs2)cc1` gave an inhibition of 47.5 ± 0.041% (α-glucosidase, rat intestine; enzyme activity; 240 µg/mL, together with: 4-nitrophenyl α-D-glucopyranoside).
`O=C(Cn1ncc(N2CCCC2)cc1=O)OCc1ccccc1` gave an inhibition of 78.7% (Luciferin 4-monooxygenase; luciferase luminescence, inhibitor; cell-free; 50 µM, counter-screen).
`CCNNC(=O)c1ccc(CN(CC(=O)NCc2ccccc2)C(=O)c2ccc(N(C)C)cc2)cc1`: inhibition “no inhibition” (QPCT (Homo sapiens, UniProt Q16769); inhibitor; 10 µM).
`CCN(O)N=Nc1ccc(S(=O)(=O)Nc2cc(C)on2)cc1` gave an inhibition of 42.5 ± 0.04% (α-glucosidase, rat intestine; enzyme activity; 120 µg/mL, together with: 4-nitrophenyl α-D-glucopyranoside).
`COc1c(O)cc2c(c1O)C(=O)c1c(cc(C)c(O)c1OC)C2=O` has a viability of 94.9 ± 14.6% (HK-2 co-cultured with HepaRG; MTT; 33.33 µM, 24 h; reference: untreated control).
`CN1CCN(c2cc(-c3ccncc3)c(-c3ccc4ccccc4c3)nn2)CC1` gave an inhibition of 19.6% (FSHR (Homo sapiens, UniProt P23945); antagonist, FLIPR; 10 µM).
The inhibition of `Cc1ccc(N(O)N=Nc2ccc(S(=O)(=O)Nc3cc(C)on3)cc2)cc1` is reported as 47.5 ± 0.09% (α-glucosidase, rat intestine; enzyme activity; 240 µg/mL, together with: 4-nitrophenyl α-D-glucopyranoside).
`CCN(Cc1ccccc1C(F)(F)F)C(=O)C1CCN(S(=O)(=O)c2ccc3[nH]ncc3c2)CC1` gave an inhibition of 1% (rat NMDA receptor; radioligand binding; 10 µM, agonist site).
The inhibition of `Cc1cc2c(s1)Nc1ccccc1N=C2N1CCN(C)CC1` is reported as 61.1% (Palmitoyl-protein thioesterase 1; Spectrum Collection screen; concentration not given, together with: substrate 20 µM).
For `Cc1ccc(N(O)N=Nc2ccc(S(=O)(=O)Nc3onc(C)c3C)cc2)cc1`, the inhibition was 30 ± 0.09% (α-glucosidase, rat intestine; enzyme activity; 180 µg/mL, together with: 4-nitrophenyl α-D-glucopyranoside).
For `CN1CC(Oc2cnc(C#N)cc2-c2ccn3nc(NC(=O)C4CC4)cc3c2)C1`, the inhibition was 6% (TRPM7 (Homo sapiens, UniProt Q96QT4); kinase activity, inhibitor; 1 µM, together with: ATP 45 µM).
`O=C(NCC1CCCO1)c1cc(N2CCCC2)n2nccc2n1` (stereo not shown) gave an inhibition of 4.78% (Luciferin 4-monooxygenase; luciferase luminescence, inhibitor; cell-free; 50 µM, counter-screen).
The inhibition of `CCCCCCCCCCCCCCCC(=O)O[C@@H]1[C@@H](O)[C@@H](O)[C@@H]([C@H](NC(=O)[C@@H]2C[C@@H](CCC)CN2C)[C@H](C)Cl)O[C@@H]1SC.Cl` is reported as 77.4% (Palmitoyl-protein thioesterase 1; Spectrum Collection screen; concentration not given, together with: substrate 20 µM).
With `c1cncc(OC[C@@H]2CN(CCN3CCc4ccccc43)CCO2)c1` the inhibition was 18.7% (DRD1; radioligand binding; concentration not given, together with: [3H]SCH23390).
`c1ccc2[nH]c(-c3cscn3)nc2c1` has an inhibition of 96.2% (Luciferin 4-monooxygenase; luciferase luminescence, inhibitor; cell-free; 50 µM, counter-screen).
`COc1ccc(F)cc1C(=O)NCc1ccc(-c2nn([C@@H](C)C(F)(F)F)c(N)c2C(N)=O)cc1` gave an inhibition of 1.1% (OXSR1 (Homo sapiens, UniProt O95747); target engagement, competitive chemoproteomics; human PBMCs; 10 µM).
`O=C(CN1CCO[C@H](COc2ccccc2)C1)N1CCc2ccccc21` gave an inhibition of -4.9% (HTR1E; radioligand binding; concentration not given, together with: [3H]5-HT).
The inhibition of `CC1(C)S[C@@H]2[C@H](NC(=O)[C@H](N)c3ccccc3)C(=O)N2[C@H]1C(=O)OCOC(=O)[C@@H]1N2C(=O)C[C@H]2S(=O)(=O)C1(C)C` is reported as 9.16% (THP-1; pyroptotic LDH release; 2 µM, 40 min, together with: LPS then nigericin).
With `C[C@H]1[C@H](OC(=O)CCC(=O)O)O[C@@H]2O[C@@]3(C)CC[C@H]4[C@H](C)CC[C@@H]1[C@@]24OO3` the inhibition was 23.5% (Non-structural polyprotein pORF1, helicase domain (Hepatitis E virus genotype 1, UniProt P33424); ATPase activity; 4.8 µM, together with: ATP 100 µM).
For `Cc1cccc(N(O)N=Nc2ccc(S(=O)(=O)Nc3nccs3)cc2)c1`, the inhibition was 35 ± 0.013% (α-glucosidase, rat intestine; enzyme activity; 240 µg/mL, together with: 4-nitrophenyl α-D-glucopyranoside).
The inhibition of `CN(C(=O)n1cnc(-c2ccc[n+]([O-])c2)c1)C1CCCCC1` is reported as 1.5% (Oxytocin receptor (OXTR, Homo sapiens, UniProt P30559); 10 µM).
With `CCS(=O)(=O)c1nc(S(=O)(=O)c2ccccc2Cl)c(N2CCN(C)C(=O)[C@H]2C)s1` the inhibition was 18.8% (SLC6A2 (Homo sapiens, UniProt P23975); 10 µM).
The inhibition of `OCCCN1CC[C@@H]2C[C@H]1c1cc(-c3ccc(C(F)(F)F)cc3)ccc12` is reported as less than 50% (HTR1E; radioligand binding, PDSP competition binding; 10 µM).
The inhibition of `O=c1c(O[C@@H]2O[C@H](CO)[C@H](O)[C@H](O)[C@H]2O)c(-c2ccc(O)c(O)c2)oc2cc(O)cc(O)c12` is reported as 14.4 ± 6.8% (Adhesin FmlH lectin domain; binding to desialylated mucin, ELISA competition; UPEC UTI89; 100 µM).
With `COc1cc(/C=C/C(=O)O)cc(OC)c1OC` the inhibition was 63.6% (Palmitoyl-protein thioesterase 1; Spectrum Collection screen; concentration not given, together with: substrate 20 µM).
For `CC[C@@H]1[C@H](F)C(=O)N[C@@H]1COc1nccc2cc(C(N)=O)c(OC)cc12`, the inhibition was 16.3% (MLKL (Homo sapiens, UniProt Q8NB16); ATP-site probe binding, ActivX profiling; THP-1 cell lysate; 0.2 mM, Lys1 site).
For `O=C1c2cccc(O)c2C(=O)c2c(O)cc(CO)cc21`, the viability was 105 ± 11.6% (HK-2 co-cultured with HepaRG; MTT; 33.33 µM, 24 h; reference: untreated control).
With `O=C1c2ccccc2CCCN1CCCCN1CCN(c2ccccn2)CC1` the inhibition was 74.4% (DRD1; radioligand binding; concentration not given, together with: [3H]SCH23390).
`CCCCCCCC/C=C1\C=C(C(F)(F)F)c2cc(O)c(O)cc21` — result for inhibition: “inhibited” (P4HB (Homo sapiens, UniProt P07237); insulin reduction, inhibitor; concentration not given, 37 °C, low micromolar preincubation).
For `Cn1cc(C(=O)O)ccc1=O`, the inhibition was 40.2% (THP-1; pyroptotic LDH release; 2 µM, 40 min, together with: LPS then nigericin).
For `Cc1ccc(S(=O)(=O)Nc2ccc(F)cc2NS(=O)(=O)c2ccc(C)cc2)cc1`, inhibition read “inhibited” (Protein lin-28 homolog A (Mus musculus, UniProt Q8K3Y3); RNA binding, inhibitor, EMSA; concentration not given).
With `Cc1ncccc1OC[C@@H]1CN(CCN2CCc3ccccc32)CCO1` the inhibition was -13.2% (HTR1E; radioligand binding; concentration not given, together with: [3H]5-HT).
`C=C1CN(S(=O)(=O)c2ccc(C)cc2)CCCN(Cc2ccccc2)CCCN(S(=O)(=O)c2ccc(C)cc2)C1` gave an FLuc activity of 1.82 (HEK293 with CD4 signal peptide-FLuc; 20 µM, 4 h, no cycloheximide, unit not given; reference: mock).
`CC(C)(NC(=O)O[C@@H]1CN2CCC1CC2)c1csc(-c2ccc(F)cc2)n1` — result for inhibition: “no inhibition” (NNMT (Homo sapiens, UniProt P40261); enzyme activity, inhibitor; 100 µM).
